Measurements gathered from unrelated publications.
Protocols differ between the studies behind these lines. Numbers after ± are the reported error.

| Compound | test | test system | conditions | pKa |
| --- | --- | --- | --- | --- |
| CC(C)[C@H](N)C(=O)N[C@@H](Cc1ccc(C#N)cc1)C(=O)NCC(N)=O | N-terminal amino group, fluorescence pH titration | water | 20 µM, 25 °C, two-state fit | 7.29 |
| O=c1cc(-c2ccc(O)c(-c3c(O)cc(O)c4c(=O)cc(-c5ccc(O)cc5)oc34)c2)oc2cc(O)cc(O)c12 | UV-vis pH titration | ethanol-water, 0.1 M NaCl | 25 µM, 25 °C, fourth pKa, phenol deprotonation | 8.71 |
| N#Cc1ccc(C[C@H](NC(=O)[C@@H](N)CCCCN)C(=O)NCC(N)=O)cc1 | N-terminal amino group, fluorescence pH titration | water | 20 µM, 25 °C, two-state fit | 7.25 |
| CNS(=O)(=O)Cc1ccc2[nH]cc(CCN(C)C)c2c1 | – | – | – | 8.93 |
| COc1c(N2CCNC(C)C2)c(F)cc2c(=O)c(C(=O)O)cn(C3CC3)c12 (centres unmarked) | pH titration | – | 25 °C, carboxylic acid | 6.25 |
| Nc1nc(=O)[nH]c2c([C@@H]3O[C@H](CO)[C@@H](O)[C@H]3O)snc12 | UV-vis absorption titration | – | – | 2.94 |
| O=C(NOC(=O)C(O)Cc1ccccc1)OCc1ccccc1 (centres unmarked) | spectrophotometric titration | – | 25 °C, acidic NH | 7.6 |
| CN1CCN(CCCN2c3ccccc3Sc3ccc(C(F)(F)F)cc32)CC1 | – | – | – | 5.03 |
| N#Cc1ccc(C[C@H](N)C(=O)NCC(=O)NCC(N)=O)cc1 | N-terminal amino group, fluorescence pH titration | water | 20 µM, 25 °C, two-state fit | 6.97 |
| CO[C@@H]1[C@H](O)[C@@H](CO)O[C@H]1n1cnc2c(=O)[nH]c(N)nc21 | UV absorption | water | 25 °C, N1 deprotonation | 9.5 |
| N#Cc1ccc(C[C@H](NC(=O)[C@@H](N)CC(=O)O)C(=O)NCC(N)=O)cc1 | N-terminal amino group, fluorescence pH titration | water | 20 µM, 25 °C, two-state fit | 7.7 |
| CCOC(=O)CNc1ccc2ccccc2c1 | spectrophotometric titration, item: secondary amine | aqueous NaCl with buffer | 10 µM | ~4.7 |
| N#Cc1ccc(C[C@H](NC(=O)CN)C(=O)NCC(N)=O)cc1 | N-terminal amino group, fluorescence pH titration | water | 20 µM, 25 °C, two-state fit | 7.99 |
| O=c1[nH]cnc2c([C@@H]3O[C@H](CO)[C@@H](O)[C@H]3O)snc12 | fluorescence emission vs pH | – | – | 7.83 |
| CC1=CC(c2ccccc2)=NS(=O)(=O)N1 | polymer-water distribution, UHPLC | – | 25 °C | 2.94 ± 0.1 |
| Nc1ncnc2c([C@@H]3O[C@H](CO)[C@@H](O)[C@H]3O)snc12 | UV-vis absorption titration | – | – | 4.25 |
| O=c1[nH]c2ccccc2n1CCCN1CCC(n2c(=O)[nH]c3cc(Cl)ccc32)CC1 | – | – | – | 7.48 |

Excerpt of the above:
| Compound | test | test system | conditions | pKa |
| --- | --- | --- | --- | --- |
| N#Cc1ccc(C[C@H](NC(=O)[C@@H](N)CCCCN)C(=O)NCC(N)=O)cc1 | N-terminal amino group, fluorescence pH titration | water | 20 µM, 25 °C, two-state fit | 7.25 |
